# Measurements from different studies.
# Compare with care: the assays were run in different laboratories. ± marks the error that the study gave.
SMILES,target or system,test,system,setting,how to read,quantity,result
NS(=O)(=O)Nc1ncnc(OCCOc2ncc(Br)cn2)c1-c1ccc(Br)cc1,,M6 formation,"female Sprague-Dawley rat, liver microsomes",50 mg/kg daily for 4 weeks,,Km,3.5 ± 1.5 µM
CC(C)c1cccc(C(C)C)c1-n1c2c([n+](-c3c(C(C)C)cccc3C(C)C)[c]1[Au-][Cl])-c1cccc3cccc-2c13,C13 cisplatin-resistant,"cell viability, MTT",,72 h,,IC50,18 ± 2 µM
N=C(N)NCCC[C@@H]1NC(=O)[C@H](CCCCNC(=O)CC[C@H](NC(=O)CC[C@H](NC(=O)CN2CCN(CC(=O)O)CCN(CC(=O)O)CCN(CC(=O)O)CC2)C(=O)N[C@@H](CCC(=O)NCCCC[C@@H]2NC(=O)[C@@H](Cc3ccccc3)NC(=O)[C@H](CC(=O)O)NC(=O)CNC(=O)[C@H](CCCNC(=N)N)NC2=O)C(=O)NCCCC[C@@H]2NC(=O)[C@@H](Cc3ccccc3)NC(=O)[C@H](CC(=O)O)NC(=O)CNC(=O)[C@H](CCCNC(=N)N)NC2=O)C(=O)NCCCC[C@@H]2NC(=O)[C@@H](Cc3ccccc3)NC(=O)[C@H](CC(=O)O)NC(=O)CNC(=O)[C@H](CCCNC(=N)N)NC2=O)NC(=O)[C@@H](Cc2ccccc2)NC(=O)[C@H](CC(=O)O)NC(=O)CNC1=O [indium-111 labelled],,,"female athymic nu/nu mice, intestine","intravenous, 72 h",,tissue uptake,3.37 ± 0.3 %ID/g
O=C1C(Br)=C(Br)C(=O)c2ccccc21,MOLT-3,"cell growth or viability, XTT",,48 h,,IC50,3.29 µM
N#Cc1ccc(-c2ccc(-c3ccco3)o2)cc1,Salmonella typhimurium,liquid broth OD,TA1535,"12.5 µM, 15 h",baseline: growth,viability,100 ± 10.1%
CC(C)=CCC1=C([O-])C(=O)c2ccccc2C1=O.CC(C)=CCC1=C([O-])C(=O)c2ccccc2C1=O.Cc1cc2cccnc2c2ncccc12.[Cu+2],MRC5 normal fibroblasts,"cell viability, MTT",,24 h,,IC50,3 ± 0.1 µM
C=CCc1ccc(OC(C)=O)c(OC)c1,EJ-28,MTT,,24 h,,IC50,> 50 µM
Cc1c(C)c(C)[c-](C)c1C.O=Cc1c[c-]c(-c2ccccn2)cc1.[Cl-].[Ir+3],A2780 cells,"cell growth, SRB",,"24 h exposure, 72 h recovery",,IC50,6.9 ± 0.3 µM
CCCCOc1nc(N)c2[nH]c(=O)n(CCCN(CCCN3CCOCC3)Cc3cccc(CC(=O)O)c3)c2n1,human PBMC,IL-5 release,,"2 d, added: PHA",,IC50,3.16 µM
C[C@@H]1NC(=O)[C@@H](CCC(=O)O)NC(=O)[C@H](Cc2ccccc2)NC(=O)[C@H](CCC(=O)O)NC(=O)[C@H](CC(N)=O)NC1=O,WM-115,"cell adhesion, inhibitor",,"1 h, added: immobilized CagL RAD mutant",,IC50,54 to 430 µM
Cc1c(-c2c3c(N)n[nH]c(=O)c3nn2-c2ccccc2)oc2cc(F)ccc12,SNU-16,cell growth or viability,,,,IC50,> 1 µM
CC1(C)C(/C=C/C=C/C=C2/N(CCCCCC(=O)NCCCC[C@@H]3NC(=O)[C@@H](Cc4ccc(O)cc4)NC(=O)[C@H](CC(=O)O)NC(=O)CNC(=O)[C@H](CCCNC(=N)N)NC3=O)c3ccccc3C2(C)C)=[N+](CCCCn2nnc3c2-c2ccccc2CN(C(=O)CCC(=O)NCCNC(=O)CN(CCN(CC(=O)O)CC(=O)O)CCN(CC(=O)O)CC(=O)O)c2ccccc2-3)c2ccc(S(=O)(=O)[O-])cc21,,,PBS,,,fluorescence quantum yield,12%
CCCCCCCCC=CCCCCCCCC(=O)OCC1OC(n2ccc(N)nc2=O)C(F)(F)C1O (stereo not drawn),MOLT-4/C8,cell growth,,added: dipyridamole 4 µg/mL,,IC50,0.098 ± 0.03 µM
CO[C@@H]1[C@H](O)[C@@H](COP(=O)(O)OP(=O)([O-])C(Cl)(Cl)P(=O)(O)OP(=O)(O)OC[C@H]2O[C@@H](n3cnc4c(=O)[nH]c(N)nc43)[C@H](O)[C@@H]2O)O[C@H]1n1c[n+](C)c2c(O)nc(N)nc21,,"cap-dependent translation, inhibitor",rabbit reticulocyte lysate,"60 min, 30 °C, no preincubation",,IC50,0.95 ± 0.1 µM
COc1ccc(NC(=O)N/N=C2\CC3(CCN(C)CC3)Oc3ccccc32)cc1,"MCF7, HCT-116, PC-3","cell growth, MTT",,range over cell lines,,IC50,1.15 to 10.1 µM
[Cl][Pd-2]1([Cl])[N+](=P(c2ccccc2)(c2ccccc2)c2ccccc2)Cc2cccc[n+]21,A2780cisR (cisplatin-resistant),"cell growth, MTT",,"74 h, 1% DMSO",,IC50,6.2 ± 0.3 µM
[Cl][Pd-]1([Cl])[S]C(Nc2ccccc2)=N[N+]1=Cc1cccs1,CEM human lymphocytes,cell proliferation,,,,IC50,34 µM
NS(=O)(=O)c1ccc(NC(=O)NN[C@@H]2O[C@H](CO)[C@@H](O)[C@H]2O)cc1,HCEC,"cell growth or viability, MTT",,96 h,,IC50,> 100 µM
S=c1n(-c2ccccc2)c2c3ccccc3nc3[n+]2[n]1[Ir-3]12([S]3)([c]3cccc4ccc5ccc[n+]1c5c34)[c]1cccc3ccc4ccc[n+]2c4c13,MRC9,"cell viability, MTT",,"irradiation 450 nm, 15.5 mW/cm^2, 15 min",,IC50,> 50 µM
Cc1nn(-c2ccc(S(=O)(=O)N[C@@H](CO)CC(C)C)cc2)c2nn3nnnc3nc12,PC-3,PI/Hoechst staining,,"0.5 µM, 24 h",,apoptotic cells,8.5 ± 2.12%
C[C@@H]1[C@H](O)[C@@H](C)/C=C/C=C/C=C/C=C/C=C/C=C/C=C/[C@H](O[C@@H]2O[C@H](C)[C@@H](O)[C@H](N)[C@@H]2O)C[C@@H]2O[C@](O)(C[C@@H](O)C[C@@H](O)[C@H](O)CC[C@@H](O)C[C@@H](O)CC(=O)O[C@H]1C)C[C@H](O)[C@H]2C(=O)O,HK-2,"cell growth, SRB",,24 h,,IC50,3.7 µM
CC1=CC(C)=[N+]2C1=C(CO)c1c(C)cc(C)n1[B-]2(C)C,RPE-1,"cell viability, resazurin",,"0.1667 h, 510 nm irradiation 2.44 J/cm2",,IC50,1.31 ± 0.1 µM
CC(C)c1cccc(C(C)C)c1-n1c(Cl)c(Cl)n(-c2c(C(C)C)cccc2C(C)C)c1=[Se].[Cl][Ag],LoVo MDR,MTT,,72 h,,IC50,1.5 ± 0.3 µM
CC1=C2[O][Ru-]([Cl])[O+]=C2C=CN1CCCCCCN1C=CC2=[O+][Ru-]([Cl])[O]C2=C1C.Cc1ccc(C(C)C)cc1.Cc1ccc(C(C)C)cc1,SISO-oxo oxoplatin-resistant,crystal violet,,96 h,,IC50,15.7 µM
Cc1cc2nc3n(CCCO)c(-c4cc(C(C)(C)C)c(O)c(C(C)(C)C)c4)cn3c2cc1C,HEK293 NF-κB luciferase,NF-κB reporter gene,,added: PMA and ionomycin,,IC50,> 25 µM
Cc1cc(CNCCCCCC(=O)NO)ccc1OCc1cccc(-c2ccccc2)c1C,mouse bone marrow-derived macrophages,"real-time PCR, refers to: Arg1",,"concentration not given, 24 h, added: IL-4 and IL-13",,mRNA level,decreased
COc1ccc(CNc2nc3c(c(=O)[nH]2)[n+](C)cn3C2OC(COP(=O)(O)OP(=O)([O-])OP(=O)(O)OCC3OC(n4cnc5c(=O)[nH]c(N)nc54)C(O)C3O)C(O)C2O)cc1 (stereo not drawn),,"cap-dependent translation, inhibitor",rabbit reticulocyte lysate,added: ARCA-capped luciferase mRNA,,IC50,0.89 ± 0.12 µM
O=[N+]([O-])c1ccc(NC2=N[N+](=Cc3cccs3)[Pt-]([Cl])([Cl])[S]2)cc1,CEM human lymphocytes,cell proliferation,,,,IC50,26 µM
C[n+]1cn([C@@H]2O[C@H](COP(=O)([O-])OP(=O)(O)CP(=O)(O)O)[C@@H](O)[C@H]2O)c2nc(N)nc(O)c21,,"cap-dependent translation, inhibitor",rabbit reticulocyte lysate,"60 min, 30 °C, no preincubation",,IC50,8.09 ± 1.18 µM
"C=C1C(=O)[C@@]23CC[C@@H]4C(C)(C)CCC[C@@]4(COC(C)=O)[C@@H]2[C@@H](O)C[C@@H]1C3 (single isomer, unassigned)",786-0,"cell growth or viability, MTT",,,,IC50,8.8 µM

# Repeated from above:
SMILES,target or system,test,system,setting,how to read,quantity,result
CC(C)c1cccc(C(C)C)c1-n1c2c([n+](-c3c(C(C)C)cccc3C(C)C)[c]1[Au-][Cl])-c1cccc3cccc-2c13,C13 cisplatin-resistant,"cell viability, MTT",,72 h,,IC50,18 ± 2 µM
N=C(N)NCCC[C@@H]1NC(=O)[C@H](CCCCNC(=O)CC[C@H](NC(=O)CC[C@H](NC(=O)CN2CCN(CC(=O)O)CCN(CC(=O)O)CCN(CC(=O)O)CC2)C(=O)N[C@@H](CCC(=O)NCCCC[C@@H]2NC(=O)[C@@H](Cc3ccccc3)NC(=O)[C@H](CC(=O)O)NC(=O)CNC(=O)[C@H](CCCNC(=N)N)NC2=O)C(=O)NCCCC[C@@H]2NC(=O)[C@@H](Cc3ccccc3)NC(=O)[C@H](CC(=O)O)NC(=O)CNC(=O)[C@H](CCCNC(=N)N)NC2=O)C(=O)NCCCC[C@@H]2NC(=O)[C@@H](Cc3ccccc3)NC(=O)[C@H](CC(=O)O)NC(=O)CNC(=O)[C@H](CCCNC(=N)N)NC2=O)NC(=O)[C@@H](Cc2ccccc2)NC(=O)[C@H](CC(=O)O)NC(=O)CNC1=O [indium-111 labelled],,,"female athymic nu/nu mice, intestine","intravenous, 72 h",,tissue uptake,3.37 ± 0.3 %ID/g
O=C1C(Br)=C(Br)C(=O)c2ccccc21,MOLT-3,"cell growth or viability, XTT",,48 h,,IC50,3.29 µM
N#Cc1ccc(-c2ccc(-c3ccco3)o2)cc1,Salmonella typhimurium,liquid broth OD,TA1535,"12.5 µM, 15 h",baseline: growth,viability,100 ± 10.1%
CC(C)=CCC1=C([O-])C(=O)c2ccccc2C1=O.CC(C)=CCC1=C([O-])C(=O)c2ccccc2C1=O.Cc1cc2cccnc2c2ncccc12.[Cu+2],MRC5 normal fibroblasts,"cell viability, MTT",,24 h,,IC50,3 ± 0.1 µM
